Published values gathered from unrelated publications.
Compare with care: the assays were run in different laboratories. “And” joins repeats or separate records; there may be more than shown. ± gives the spread as reported.

`CCC(=O)O[C@]1(C(=O)SCF)[C@H](C)C[C@H]2[C@@H]3C[C@H](F)C4=CC(=O)C=C[C@]4(C)[C@@]3(F)[C@@H](O)C[C@@]21C` has an activity score of 3.4 (human iPSC-derived cardiomyocytes; MyBP-C/MYH ratio, plate-normalised SD score; concentration not given, primary screen; direction not given).
The maximum efficacy of `COc1ccc(C(=O)/C=C/Sc2nc3ccccc3o2)cc1` is reported as 73% (C127 LDR GFP reporter cells; silenced GFP reporter induction, activator, high-content imaging; independent samples, two-run mean).
The MyBP-C level of `Nc1nccs1` is reported as 72.6% (MYBPC3 iPSC cardiomyocytes; plate-normalised; concentration not given, 24 h, hit retest).
`Cn1cc(-c2ccc(-c3cncc(Cl)c3N3CCC4(CCNC4=O)CC3)cc2)cn1` — result for “log2 fold change”: 1.52 (COLO 205; gene expression, microarray, measured: IFIT3 mRNA; concentration not given, 2 h; reference: untreated cells).
With `O=C(/C=C/C=C/C=C/C1CCCCC1)NC1=C[C@@](O)(/C=C/C=C/C=C/C(=O)NC2=C(O)CCC2=O)[C@@H]2O[C@@H]2C1=O` the GI50 was 24 µM (KNS-42; cell growth, CellTiter-Glo; 78 h).
With `CC(C)[C@@H]1CC[C@@H](C)C[C@H]1O` the activity score was 12 (human iPSC-derived cardiomyocytes; MyBP-C/MYH ratio, plate-normalised SD score; concentration not given, primary screen; direction not given).
`COc1cc(/C=C/C(=O)CC(=O)/C=C/c2ccc(O)c(OC)c2)ccc1O` has an inhibition of roughly 50% (human cryopreserved primary enterocytes; androstenedione formation; 100 µM).
The GI50 of `Cn1cncc1C1=CN(c2ncnc3[nH]cnc23)CCS1` is reported as 11.7 µM (T29; colon cancer).
Under “53BP1 foci formation reduction”, `CN1CCN(c2ccnc(C(=O)N3CCC[C@H](C(=O)Nc4cccc(-c5ccc6c(c5)C(=O)NC6)c4)C3)c2)CC1` is recorded as roughly 3 fold (U2OS; 50 µM, with: ionizing radiation; reference: irradiated control).
`Cn1nc(-c2ccc(Cl)cc2)nc2c(=O)n(C)c(=O)nc1-2` gave an efficacy of 55% (C127 LDR GFP reporter cells; silenced GFP reporter induction, activator, high-content imaging; retest, two-run mean).
`CC(NCCC(c1ccccc1)c1ccccc1)c1ccccc1` (centres unmarked) has an activity score of 4.8 (human iPSC-derived cardiomyocytes; MyBP-C/MYH ratio, plate-normalised SD score; concentration not given, primary screen; direction not given).
`CC(=O)c1nn(-c2ccc(Cl)cc2)/c(=N/N=C(\C)c2ccc(NC(=O)c3ccccc3)cc2)s1` gave a toxicity of 85.5% and 96.9% (HepG2; 0.312 µM).
`CC/C(=N\NC(=O)C(C)Nc1ccccc1)c1ccc(O)c(C)c1O` (centres unmarked) gave a protein level of 0.73 ± 0.42 (SK-OV-3; Western blot, measured: LATS; 10 µM, 1 h, 3D gellan gum culture, unit not given; reference: β-actin).
The mRNA level of `COc1cc(/C=C/C(=O)N2CCC=CC2=O)cc(OC)c1OC` is reported as 62.6 ± 1.9% (MDA-MB-468; quantitative RT-PCR, measured: DAPK1; 30 µM, 8 h; reference: untreated cells).
The activity score of `C/C=C1\[C@H]2C=C(C)C[C@]1(N)c1ccc(=O)[nH]c1C2` is reported as 3.7 (human iPSC-derived cardiomyocytes; MyBP-C/MYH ratio, plate-normalised SD score; concentration not given, primary screen; direction not given).
`COc1cccc2c1C(=O)c1c(O)c3c(c(O)c1C2=O)C[C@@](O)(C(=O)CO)C[C@@H]3O[C@H]1C[C@H](N)[C@H](O)[C@H](C)O1`: “point of departure” 0.0282 µM (HepG2; measured: metallothionein protein; 24 h, distribution mode 1).
For `COc1cccc(OC)c1-c1cc(C(=O)NC2(C(=O)O)C3CC4CC(C3)CC2C4)nn1-c1ccc(C(=O)N(C)CCCN(C)CCCN(C)C(=O)CN2CCN(CC(=O)[O-])CCN(CC(=O)[O-])CCN(CC(=O)[O-])CC2)cc1C(C)C.[177Lu+3]` (centres unmarked), the macromolecule-bound activity was 15 ± 5% (HT-29; centrifugal filtration 10 kDa; concentration not given, 24 h; reference: internalized).
The ΔPSI of `Clc1nc(NCc2ccco2)c2[nH]cnc2n1` is reported as 0.209 (FD iPSC-derived cardiomyocytes; alternative splicing, RNA-seq, measured: CCNJL exon chr5:160280524-160280948; unit not given; reference: DMSO minus compound).
`O=C(COc1ccc(Cl)cc1)NC1CCC(NC(=O)COc2ccc(Cl)cc2)CC1` (centres unmarked): mitochondrial-nuclear distance “inhibited” (MFN2-deficient and wild-type U2OS; PGL-induced mitochondrial distribution; 200 nM, 6 h, with: PGL).
`CCOc1ccc(NC(=O)c2nc(S(=O)(=O)Cc3ccccc3F)ncc2Cl)cc1` gave an efficacy of 46% (C127 LDR GFP reporter cells; silenced GFP reporter induction, activator, high-content imaging; retest, two-run mean).
`CCCCN1CCN(c2ccc3[nH]c(-c4ccc5[nH]c(-c6ccc(C(F)(F)F)cc6)nc5c4)nc3c2)CC1` gave a growth percent of -63.5% (M14; SRB; 10 µM, 48 h).
With `CCCc1cc(=O)nc(SCC(=O)Nc2nc3ccccc3[nH]2)[nH]1` the inhibition was 61 ± 2% (cells, COS-1, expressing proMMP-9; cell migration, 2D collagen dot migration; 50 µM, 18 h).
The fold change of `C=CC1=C(C)c2cc3[n-]c(cc4nc(cc5[n-]c(cc1n2)c(C)c5C=C)C(C)=C4CCC(=O)O)c(CCC(=O)O)c3C.[Zn+2]` is reported as 2.14 (SH-SY5Y; RNA-seq, measured: ITGA2 mRNA; 5 µM, 5 h; reference: untreated cells).
`Cc1cccc(-c2[nH]c(CNc3ccccc3F)nc2-c2ccc3ncnn3c2)n1` has a viability of 51% and 62% and 41% (MM1.S; XTT; 1.4 µM).
`CC(=O)S[C@@H]1CC2=CC(=O)CC[C@]2(C)[C@H]2CC[C@@]3(C)[C@@H](CC[C@@]34CCC(=O)O4)[C@H]12` gave an activity score of 5.2 (human iPSC-derived cardiomyocytes; MyBP-C/MYH ratio, plate-normalised SD score; concentration not given, primary screen; direction not given).
`CCn1cc(-c2cc(Cn3ccoc3=N)cc3c2CCN([C@@H](C)c2cc(OC)ccn2)C3=O)c(C(F)(F)F)n1` gave an EC50 of greater than 30 µM (EBC-1; cell growth, inhibitor; 120 h).
For `O=C(Nc1nnc2[nH]c(=S)[nH]c(-c3ccc(Cl)cc3)c1-2)c1ccccc1`, “mean growth percent” read 98.2% (NCI60 cell panel; SRB; 10 µM).
`Cc1cc(Nc2ncc(Cl)c(Nc3ccccc3S(=O)(=O)C(C)C)n2)c(OC(C)C)cc1C1CCNCC1` — result for “log2 fold change”: -1.59 (CLB-GE; phosphoproteomics LC-MS/MS, measured: PDCD4 phosphorylation; 200 nM, 60 min; reference: untreated).
For `CCn1cc(-c2cc(Cn3ccnc3)cc3c2CCN([C@H](c2cc(OC)ccn2)C2CC2)C3=O)c(C(F)(F)F)n1`, the EC50 was 1.5 µM (COLO 320; cell growth, inhibitor; 120 h).
`CCCCc1oc2ccc(NS(C)(=O)=O)cc2c1C(=O)c1ccc(OCCCN(CCCC)CCCC)cc1` has a fold change of 1.7 fold (human embryonic stem cell aggregates; mRNA level, microarray, measured: TTR; 0.5 µM, 120 h; reference: untreated, up-regulated).
Under “number of unchanged genes”, `Cn1cc(Nc2nccc(-c3ccc4c(c3)CN(C3COC3)CC[C@H]4NC(=O)c3cn(C(C)(C)C)nn3)n2)cn1` is recorded as 4 (human B cells; 100 nM, 64 h, stimulation-downregulated genes, with: anti-IgM).
`CCOC(=O)c1cc2c(=O)n3ccccc3nc2n(Cc2ccco2)c1=NC(=O)c1ccc(Br)cc1` gave an efficacy of 65% (C127 LDR GFP reporter cells; silenced GFP reporter induction, activator, high-content imaging; retest, two-run mean).
`NCCCOc1cc(NC(=O)c2cc(Cl)cc(C(=O)Nc3cc(OCCCN)c4ccccc4n3)n2)nc2ccccc12` gave a selectivity ratio of 2 (U2OS; cell viability, CellTiter-Glo; 72 h; reference: IC50 U2OS over WI-38).
`C[C@]12CC[C@H]3C(=CCc4cc(O)ccc43)[C@@H]1CCC2=O` has an activity score of -3.4 (human iPSC-derived cardiomyocytes; MyBP-C/MYH ratio, plate-normalised SD score; concentration not given, primary screen; direction not given).
`COc1cnc2cccc(N3CCc4c(cc(Cn5ccnc5C)cc4-c4cn(C)nc4C(F)(F)F)C3=O)c2c1` gave an EC50 of 0.0271 µM (SNU478; cell growth; 120 h).
`C[C@H]1[C@@H](O)O[C@@H]2O[C@@]3(C)CC[C@H]4[C@H](C)CC[C@@H]1[C@@]24OO3`: “late apoptotic cells” 1.1% (K562; annexin V/PI flow cytometry, measured: annexin V+/PI+; 3.2 µM, 24 h).
With `CC(C)(C)NC[C@H](O)COc1nsnc1N1CCOCC1` the activity score was 3.4 (human iPSC-derived cardiomyocytes; MyBP-C/MYH ratio, plate-normalised SD score; concentration not given, primary screen; direction not given).
`CC(C)NCC(O)c1ccc(O)c(O)c1` (centres unmarked) has a sarcomere length of 1.8 µm (mouse ventricular cardiomyocytes; dose not given, 0.355 s).
